{"data": "Measurements of several laboratories", "note": "Numbered parts are unrelated; each lists some results of a single study. Substitutions count along the parent as printed."}
{"data": "Study 1", "target": "TAR DNA-binding protein 43, full length, His tag (TARDBP, Homo sapiens, UniProt Q13148, residues 1-414)", "technique": "RNA Bind-n-Seq", "molecule type": "RNA", "medium": "in vitro", "concentration": "20 nM", "notes": "6-mer, flanks averaged, single round", "together with": "150 mM LiCl", "baseline": "input library", "direction": "higher = stronger binding"}
{"Strand": "AUGCAU", "6-mer enrichment (R)": 0.98}
{"Strand": "GUUAGA", "6-mer enrichment (R)": 0.991}
{"Strand": "GGGACG", "6-mer enrichment (R)": 1.15}
{"Strand": "GCAUUU", "6-mer enrichment (R)": 0.994}
{"Strand": "UCAGAG", "6-mer enrichment (R)": 0.874}
{"Strand": "GUCCAA", "6-mer enrichment (R)": 0.856}
{"Strand": "CAAUGG", "6-mer enrichment (R)": 0.93}
{"Strand": "CCAGGC", "6-mer enrichment (R)": 0.929}
{"data": "Study 2", "target": "CCNE2, cyclin fold, Cln2 fusion (human)", "technique": "yeast growth competition, sequencing", "medium": "yeast", "notes": "strong parent motif", "baseline": "not given", "direction": "higher = stronger binding", "starting sequence": "viral docking peptide; KGVKRKLFAEDSS; partner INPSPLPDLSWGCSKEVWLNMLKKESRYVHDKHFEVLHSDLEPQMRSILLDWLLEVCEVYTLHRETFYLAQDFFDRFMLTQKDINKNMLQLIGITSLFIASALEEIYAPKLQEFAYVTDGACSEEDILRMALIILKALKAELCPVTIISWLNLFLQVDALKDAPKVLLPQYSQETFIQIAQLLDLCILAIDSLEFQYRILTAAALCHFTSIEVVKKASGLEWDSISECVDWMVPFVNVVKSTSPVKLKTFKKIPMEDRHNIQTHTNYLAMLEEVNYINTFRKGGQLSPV"}
{"Change": "KGVKRQLFAEDSS [K6Q]", "normalised enrichment score": 6.84}
{"Change": "KGVKRALFAEDSS [K6A]", "normalised enrichment score": 4.26}
{"Change": "KGQKRKLFAEDSS [V3Q]", "normalised enrichment score": 0.18}
{"Change": "KGVFRKLFAEDSS [K4F]", "normalised enrichment score": 1.34}
{"Change": "KGVKRKLFAEDYS [S12Y]", "normalised enrichment score": 6.67}
{"Change": "KYVKRKLFAEDSS [G2Y]", "normalised enrichment score": 5.19}
{"Change": "KGVKRKLFQEDSS [A9Q]", "normalised enrichment score": 7.12}
{"Change": "KGVKRKLFAEISS [D11I]", "normalised enrichment score": 5.65}
{"Change": "KGVKEKLFAEDSS [R5E]", "normalised enrichment score": 0.323}
{"Change": "KGVHRKLFAEDSS [K4H]", "normalised enrichment score": 1.54}
{"Change": "KTVKRKLFAEDSS [G2T]", "normalised enrichment score": 6.57}
{"Change": "KGVNRKLFAEDSS [K4N]", "normalised enrichment score": 3.64}
{"Change": "KGVKRKLFAVDSS [E10V]", "normalised enrichment score": 5.53}
{"Change": "KGVKKKLFAEDSS [R5K]", "normalised enrichment score": 2.62}
{"Change": "KLVKRKLFAEDSS [G2L]", "normalised enrichment score": 4.88}
{"Change": "KGVKRKLWAEDSS [F8W]", "normalised enrichment score": 4.68}
{"data": "Study 3", "target": "HLA class I histocompatibility antigen, A alpha chain, allele A*80:01 (Homo sapiens, UniProt P04439)", "read-out": "peptide-MHC binding", "molecule type": "peptide", "concentration": "concentration not given"}
{"Sequence": "HVTGRWNWW", "binding": "inactive"}
{"Sequence": "FRDEAGAIL", "binding": "inactive"}
{"Sequence": "AFHQLVQVI", "binding": "inactive"}
{"Sequence": "MQIDGGEGV", "binding": "inactive"}
{"data": "Study 4", "target": "Centromere-binding protein 1, full length, N-terminal tag (CBF1, Saccharomyces cerevisiae, UniProt P17106, residues 1-351)", "technique": "protein-binding microarray", "molecule type": "double-stranded DNA, one strand shown", "medium": "in vitro", "concentration": "0.8 µM", "notes": "whole 60-bp probe, no competitor", "direction": "higher = stronger binding", "all sequences stand within": "… GTCTTGATTCGCTTGACGCTGCTG", "UniProt P17106, sequence (whole entry, looked up)": "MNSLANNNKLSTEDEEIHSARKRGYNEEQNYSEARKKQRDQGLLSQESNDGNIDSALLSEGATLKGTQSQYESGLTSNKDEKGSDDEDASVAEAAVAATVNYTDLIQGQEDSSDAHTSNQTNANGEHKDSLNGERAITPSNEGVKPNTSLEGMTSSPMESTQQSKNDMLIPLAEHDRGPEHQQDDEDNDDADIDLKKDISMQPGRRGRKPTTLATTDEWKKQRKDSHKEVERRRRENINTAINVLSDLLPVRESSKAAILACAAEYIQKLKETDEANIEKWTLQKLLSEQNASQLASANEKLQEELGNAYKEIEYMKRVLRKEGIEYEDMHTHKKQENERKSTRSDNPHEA"}
{"Strand": "GAAGTGAGATGGCGTGGCGTGGATCTGCAGGCTTAG", "fluorescence intensity [a.u.]": 524}
{"Strand": "CTAGAAGAAAGTTAAACCGTGATTTATTACTTCTTC", "fluorescence intensity [a.u.]": 539}
{"Strand": "GAATAAAAAAGAAAACGCGTGCTATCGCGTAACTAG", "fluorescence intensity [a.u.]": 564}
{"Strand": "GAATCTGCATCAGGTGACCCAAACTAGAATAAGTAG", "fluorescence intensity [a.u.]": 5870}
{"Strand": "GAATTCTTCCTTCCTCTCGTGCTTGTTGCAAATTAG", "fluorescence intensity [a.u.]": 583}
{"Strand": "CTACTTTGTATTCCTCATGTGAGAATGTTGGACTTC", "fluorescence intensity [a.u.]": 587}
{"Strand": "CTACAAATTTAGCAAGTCATGACGGCAAATTTCTTC", "fluorescence intensity [a.u.]": 618}
{"Strand": "CTACGAATTCCCGAGCACATGGAGTCGCTGAACTTC", "fluorescence intensity [a.u.]": 655}
{"note": "A few entries again (study 2):"}
{"Change": "KGVKEKLFAEDSS [R5E]", "normalised enrichment score": 0.323}
{"Change": "KGQKRKLFAEDSS [V3Q]", "normalised enrichment score": 0.18}
{"Change": "KGVNRKLFAEDSS [K4N]", "normalised enrichment score": 3.64}
{"Change": "KGVKRKLFAVDSS [E10V]", "normalised enrichment score": 5.53}
{"Change": "KGVKRKLFQEDSS [A9Q]", "normalised enrichment score": 7.12}
